Measurements collected from several papers.
Every numbered part comes from another study and shows a few of its results, in no order.

Sample 1
Target: Interferon regulatory factor 7, full length, phosphomimetic (IRF7, Homo sapiens, UniProt Q92985, residues 1-503, S101K/S471D/S472D/S475D/S476D/S477D/S483D/S484D/S487D)
Technique: protein-binding microarray
Molecule type: double-stranded DNA, one strand shown
Sample: in vitro
Tested at: 250 nM
Setting: 60-bp whole probe
With: salmon DNA 0.4 mg/ml
Relative to: random background probes
Direction: higher = stronger binding
Constant ends, left off below: GCCTAGCAC … GTCTTGATTCGCTTGACGCTGCTG
Residues (chain): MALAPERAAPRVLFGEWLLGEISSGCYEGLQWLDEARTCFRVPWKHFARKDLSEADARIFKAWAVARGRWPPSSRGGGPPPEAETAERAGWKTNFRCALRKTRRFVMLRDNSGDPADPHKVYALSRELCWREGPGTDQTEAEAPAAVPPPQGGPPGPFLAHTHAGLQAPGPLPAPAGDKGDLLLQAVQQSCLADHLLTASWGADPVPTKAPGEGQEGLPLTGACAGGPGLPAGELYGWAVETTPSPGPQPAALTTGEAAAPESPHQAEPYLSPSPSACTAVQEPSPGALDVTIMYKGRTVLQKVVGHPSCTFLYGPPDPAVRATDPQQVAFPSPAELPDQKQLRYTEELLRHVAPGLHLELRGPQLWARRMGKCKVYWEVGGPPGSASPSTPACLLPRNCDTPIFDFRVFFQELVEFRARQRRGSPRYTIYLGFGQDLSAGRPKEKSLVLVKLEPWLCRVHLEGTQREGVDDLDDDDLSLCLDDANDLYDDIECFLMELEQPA
For `TCAGTTTTTGCTTTCCTACTGTGCTAG`, the log fluorescence was 1.77 z-score.
The log fluorescence of `GCACTTTTCCCCCTAGTTGTGTGCTAG` is reported as 1.43 z-score.
With `TTAGGACAGGGTATCGGTTAGTGCTAG` the log fluorescence was 0.51 z-score.
The log fluorescence of `TTAGATCTCAGACTGGATTTGTGCTAG` is reported as -0.204 z-score.
`TCAACTTTCTACTTCTCACTGTGCTAG` has a log fluorescence of 1.16 z-score.
For `GACGCACTGGGTATCGGGACGTGCTAG`, the log fluorescence was -0.0119 z-score.
For `TCACCTTCAGCTCTAGGACTGTGCTAG`, the log fluorescence was -0.277 z-score.
The log fluorescence of `TTAGATTTCGGGACTGGATAAGTGCTA` is reported as 0.202 z-score.
`TTAGAACTGGGGTATCGCTTAGTGCTA` gave a log fluorescence of -0.389 z-score.
`GACGGTTTCGTACTGCTGACGTGCTAG` gave a log fluorescence of 5.98 z-score.
The log fluorescence of `ATAGAACTGAGACTGGATTAGTGCTAG` is reported as -0.289 z-score.
`GACGATATCAGTTACGAGACGTGCTAG` has a log fluorescence of -0.0455 z-score.
The log fluorescence of `TTAGGTTCCGGTTTCCGTTAGTGCTAG` is reported as 8.46 z-score.
`GAAGCTTCTTTTTTATTCTAGTGCTAG` has a log fluorescence of 0.279 z-score.
`TTAGATCTCGGGACTGGATTAGTGCTA` gave a log fluorescence of -0.183 z-score.
With `GTCGGTATCCTTTTCCTGACGTGCTAG` the log fluorescence was 1.76 z-score.
With `TAAGATTTCAGTATCGATTAGTGCTAG` the log fluorescence was 1.41 z-score.
`TTAGGTTTCGCTTCCGGTTAGTGCTAG` gave a log fluorescence of 10.8 z-score.
With `GACGGACTGGGGTATCGGAACGTGCTA` the log fluorescence was -0.789 z-score.

Sample 2
Target: Centromere-binding protein 1, full length, His-tagged (CBF1, Saccharomyces cerevisiae, UniProt P17106, residues 1-351)
Chain of UniProt P17106 (whole entry, looked up): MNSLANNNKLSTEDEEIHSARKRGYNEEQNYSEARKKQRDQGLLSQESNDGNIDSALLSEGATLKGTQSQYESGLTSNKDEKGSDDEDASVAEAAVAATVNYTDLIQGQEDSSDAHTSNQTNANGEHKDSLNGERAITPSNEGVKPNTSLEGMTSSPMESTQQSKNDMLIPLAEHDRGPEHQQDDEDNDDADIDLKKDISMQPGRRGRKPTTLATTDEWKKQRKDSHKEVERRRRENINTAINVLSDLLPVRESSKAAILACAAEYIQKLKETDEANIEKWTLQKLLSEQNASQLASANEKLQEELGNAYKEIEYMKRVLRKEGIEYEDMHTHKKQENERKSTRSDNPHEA
Technique: competition protein-binding microarray
Molecule type: double-stranded DNA, one strand shown
Sample: in vitro
Tested at: 2 µM
Setting: whole 60-bp probe, lowest competitor level
With: Pho4 competitor, 0.05 µM
Direction: higher = stronger binding
`TCACAACAGATATCCCACATGAGGCAGCGCTACCCAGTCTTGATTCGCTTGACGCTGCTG` has a fluorescence intensity of 57.5 a.u.
`AAAGCGGTAATTTGAGCAGTGGGTGCAGATATCTATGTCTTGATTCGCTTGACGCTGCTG` gave a fluorescence intensity of 65.7 a.u.
With `TGCGCAACAACTTGCGCGGTGGGTGTATGTCTAGAAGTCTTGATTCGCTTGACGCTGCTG` the fluorescence intensity was 67.4 a.u.
With `CTTCCGATAACTCCGCACGGCAAGGAGTAGTGGCGAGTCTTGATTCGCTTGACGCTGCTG` the fluorescence intensity was 55.5 a.u.
The fluorescence intensity of `GTCTTGTCTCATTGTCTTGTGGGTGTCCCCACTTCAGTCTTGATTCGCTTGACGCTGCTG` is reported as 67.4 a.u.
`CGTCCTAGCGATTGATTGGTGGGTGCCATGAGGAAGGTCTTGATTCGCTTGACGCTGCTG` gave a fluorescence intensity of 65.4 a.u.
`TGCGCAACAACTTGTAGTGTGGGTGTATGTCTAGAAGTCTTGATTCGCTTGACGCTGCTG` has a fluorescence intensity of 76.7 a.u.
`CATACCCAACCTTGACTGGTGGGTGAAGATATTTGTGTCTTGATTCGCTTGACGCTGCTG` gave a fluorescence intensity of 62.4 a.u.
The fluorescence intensity of `CCAGTCCCTCAGCACCACGTGGGACTTAGGGGCAAAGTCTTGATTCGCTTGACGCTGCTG` is reported as 657 a.u.
The fluorescence intensity of `AAGCGCCAAGTACAGAACGTGACGGTAAGAAAGAATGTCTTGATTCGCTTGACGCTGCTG` is reported as 284 a.u.
For `ATACAGCCCACTGCACACATGGTGATAAAGAGAATTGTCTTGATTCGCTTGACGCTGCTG`, the fluorescence intensity was 95.9 a.u.
`CAATCTTTGTCTAGCTTCGTGCTTTTTGGCAAAAGCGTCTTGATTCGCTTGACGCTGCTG` has a fluorescence intensity of 79.5 a.u.
The fluorescence intensity of `TGCGCAATGGAGAAACACGGGTGGCATAGGTCTGCGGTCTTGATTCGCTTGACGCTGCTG` is reported as 72.3 a.u.
`AACCTACCATGGTAGCACATGAAGAAGCAACCACCCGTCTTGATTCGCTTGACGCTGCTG` gave a fluorescence intensity of 68.5 a.u.
`AATCGTAGGATAGGTTACATGATAATTGCAATAGATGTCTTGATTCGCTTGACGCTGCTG` gave a fluorescence intensity of 82.8 a.u.
The fluorescence intensity of `CGTCCTAGCGATTGAGCGGTGGGTGCCATGAGGAAGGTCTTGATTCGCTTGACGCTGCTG` is reported as 77.4 a.u.
The fluorescence intensity of `CAACAGTCAAAGGACCTCATGACAGATGGTACTTCGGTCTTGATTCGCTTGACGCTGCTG` is reported as 84.1 a.u.
`GGCTTTCTAAGTGAGCTCGTGCCAGCACAATTAATAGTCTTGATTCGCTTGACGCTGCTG` has a fluorescence intensity of 123 a.u.
`TTTTATTCCTGGAAAAGCGTGCAAATATTTTTCGAGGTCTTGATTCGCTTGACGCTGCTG` has a fluorescence intensity of 144 a.u.

Sample 3
Target: RING finger protein unkempt homolog, zinc fingers 1-6, GST-SBP tag (UNK, Homo sapiens, UniProt Q9C0B0, residues 30-357)
Chain of UniProt Q9C0B0 (30-357, looked up): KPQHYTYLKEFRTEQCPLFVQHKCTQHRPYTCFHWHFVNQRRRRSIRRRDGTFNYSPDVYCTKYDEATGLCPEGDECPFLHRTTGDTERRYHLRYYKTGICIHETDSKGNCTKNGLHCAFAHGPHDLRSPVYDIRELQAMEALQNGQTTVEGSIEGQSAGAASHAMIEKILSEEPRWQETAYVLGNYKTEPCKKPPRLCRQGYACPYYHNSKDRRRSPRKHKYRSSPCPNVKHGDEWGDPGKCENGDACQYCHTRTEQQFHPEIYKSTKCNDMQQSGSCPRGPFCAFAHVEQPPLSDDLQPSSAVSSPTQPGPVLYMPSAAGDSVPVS
Technique: RNA Bind-n-Seq
Molecule type: RNA
Sample: in vitro
Tested at: not given
Setting: RNA with constant flanks, human and mouse sites, ends assumed
Relative to: input RNA pool
Direction: higher = stronger binding
With `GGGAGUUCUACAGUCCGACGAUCUCUGAUGUCUCCCAGAUGAAUGAUAGACUGGGGGAAGAUGAGUCCUUGCUAAUGAAAUUGUAUAGCUUCCUCCUAAAUGAGUCCCCCUUGAACCCACUACUCGCCAGUUUCUUCAGCAAGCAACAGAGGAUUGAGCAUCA` the bound/input enrichment was 0.324 ratio.
With `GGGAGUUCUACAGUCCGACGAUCUUAAAAUUACUGAAGUUAGAGAGAAUUAAAGACUAUCUUCUCAUGGAGGAAGAAUUCAUUAGAAAUCAGGAACAAAUGAAACCAUUAGAAGAAAAGCAAGAGGAGGAAAGAUCAAAAGUGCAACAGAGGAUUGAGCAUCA` the bound/input enrichment was 2.14 ratio.
The bound/input enrichment of `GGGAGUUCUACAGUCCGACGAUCUAUUGAAUUGCUGAGGAUUUUGGGAAAAGACAAAUCAAAGUUCCCAUUCCAUGGAUCCCUUAGGUGCACCUUCCCAGUUUGUGGAUGUGGAUACACUACCAAGCUGGGGUGACUCAUGCCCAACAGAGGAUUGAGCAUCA` is reported as 0.238 ratio.
`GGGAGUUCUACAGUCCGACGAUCAUGAGGGCUCCUAAACACUUUCUUCCUGAGAUGUUAAGCAAAGUAAUCAUCCUGUCACUAGAUAGAAGCGAUGAAGAUAAAGAAAAAGCAAGUUCUUUGAUCAGUUUACUCAAACAGGAACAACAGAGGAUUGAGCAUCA` gave a bound/input enrichment of 0.22 ratio.
`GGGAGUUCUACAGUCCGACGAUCAGUGGGGGCUCAGGAGCCAAGCCCUCAGACACAGCAUCGGAAGCUACUCGUCCAGCUACCUUGAAUCGCUUUUCUGCUCUUCAACAAACAUUACCCGCAGAGAACACAGAUAACAGACGUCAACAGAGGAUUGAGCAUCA` has a bound/input enrichment of 0.164 ratio.
`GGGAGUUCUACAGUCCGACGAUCAUGCUCGGAUGUAAGAAGCCAAUAGGAAAACCAGCCACUGCAAAACUAUAACAAUAAUGGAGCAGUUGUAGAAAACACAGUUCCAUAGUGACAGUCACAAAGGACUUACUCUGCCACAAACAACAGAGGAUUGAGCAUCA` gave a bound/input enrichment of 2.13 ratio.
For `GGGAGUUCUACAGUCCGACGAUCGAUAUAGAAGUGAGACAUGCACUCAACUAUAAUCAGAGACAAUUGAAAGAACUGAAAGAUAGUAAAACUGAUCGACUAAAAAGAUUUGGUCCUCAUGUUCCAGCUCUUCUGGAAGCAAUACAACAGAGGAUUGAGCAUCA`, the bound/input enrichment was 0.324 ratio.
With `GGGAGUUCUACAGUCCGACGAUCAAUGUGCAAGAAAGGGAAGCACAGUUUGGGACAACAGCAGAGAUCUAUGCCUAUCGAGAAGAGCAGGAGUUUGGAAUUGAAGUAGUGAAAGUGAAAGCAAUUGGAAGGCAGCGGUUCAAGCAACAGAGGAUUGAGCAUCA` the bound/input enrichment was 0.399 ratio.

Sample 4
Target: Histone acetyltransferase KAT6A, both winged helices, GST fusion (KAT6A, Homo sapiens, UniProt Q92794, residues 1-181)
Technique: protein binding microarray
Molecule type: double-stranded DNA, one strand shown
Sample: in vitro
Tested at: not given
Setting: 8-mer, flanks averaged, mean of 2 arrays, mostly near background
Relative to: not given
Direction: higher = stronger binding
Construct (chain): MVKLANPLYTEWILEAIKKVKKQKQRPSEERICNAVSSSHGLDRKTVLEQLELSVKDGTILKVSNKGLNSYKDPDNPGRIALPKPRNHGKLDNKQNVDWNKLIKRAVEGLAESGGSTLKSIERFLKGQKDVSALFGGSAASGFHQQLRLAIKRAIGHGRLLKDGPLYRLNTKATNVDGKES
For `GGTTCCTA`, the E-score was -0.0949.
The E-score of `AGGGCTTG` is reported as -0.0771.
The E-score of `CAGTCACC` is reported as -0.0933.
The E-score of `AGCGGTTA` is reported as 0.199.
The E-score of `GAAGTAAC` is reported as -0.15.
The E-score of `CTCTCCTA` is reported as -0.166.
`AAATAAGC` has an E-score of -0.0716.
With `CTGGTTAC` the E-score was -0.0674.
`ACTATTGG` has an E-score of -0.129.
`CGCGGGCA` has an E-score of 0.313.
The E-score of `CCGGTTAA` is reported as 0.19.
With `GAAGCAGC` the E-score was -0.0729.
`AGCATATC` has an E-score of -0.0828.
For `ATACCATA`, the E-score was -0.0561.
For `AAACCTGC`, the E-score was -0.163.
`GCATTGCA` has an E-score of -0.138.
The E-score of `ATGCCTGC` is reported as -0.0877.
`ACAGTCCC` gave an E-score of 0.0415.

For quick reference, copied from above (sample 1):
For `TCAGTTTTTGCTTTCCTACTGTGCTAG`, the log fluorescence was 1.77 z-score.
The log fluorescence of `GCACTTTTCCCCCTAGTTGTGTGCTAG` is reported as 1.43 z-score.
With `TTAGGACAGGGTATCGGTTAGTGCTAG` the log fluorescence was 0.51 z-score.
The log fluorescence of `TTAGATCTCAGACTGGATTTGTGCTAG` is reported as -0.204 z-score.
`TCAACTTTCTACTTCTCACTGTGCTAG` has a log fluorescence of 1.16 z-score.
For `GACGCACTGGGTATCGGGACGTGCTAG`, the log fluorescence was -0.0119 z-score.
